{"data": "Measurements of several laboratories", "target": "Mitogen-activated protein kinase kinase kinase kinase 4 (MAP4K4, Homo sapiens, UniProt O95819)", "note": "Compare with care: the assays were run in different laboratories. “And” joins repeats or separate records; there may be more than shown."}
{"SMILES": "Cc1cnc2nc1Nc1cccc(c1)COC/C=C/COCc1cc(ccc1OCCN1CCOCC1)N2", "test": "binding", "conditions": "0.1 µM", "quantity": "remaining binding", "result": "89%"}
{"SMILES": "CNC(=O)C1CCN(c2cc(C)c(F)cc2NC(=O)c2ccc(-c3cc(O)ccc3C)c(C)c2)CC1", "test": "binding, competition with immobilised ligand", "conditions": "1 µM", "quantity": "remaining binding", "result": "87%"}
{"SMILES": "C=CC(=O)Nc1cccc(-c2cnc3[nH]cc(C(=O)NC(C)(C)C)c3n2)c1", "test": "kinase activity", "conditions": "0.1 µM", "quantity": "inhibition", "result": "28% and 23%"}
{"SMILES": "CC(C)=CC1OC(C)(C)C2C=C3C(=O)C(Cl)=CC(O)C3C3C(O)C4OC4C(=O)C132 (stereo not shown)", "test": "cell-free assay, competition with immobilised ligand", "conditions": "10 µM", "quantity": "remaining binding", "result": "94%"}
{"SMILES": "O=C(Cc1ccc(OCc2ccccc2)cc1)NC1(C(=O)O)CCN(C(=O)c2ccc(-c3cccc(Cl)c3)cc2)CC1", "test": "enzyme activity, inhibitor", "conditions": "10 µM", "quantity": "activity vs control", "result": "102%"}
{"SMILES": "CN1CC[C@@H](COc2cnc(C#N)cc2-c2ccn3nc(NC(=O)C4CC4)cc3c2)C1", "test": "enzyme activity, inhibitor", "conditions": "1 µM", "quantity": "inhibition", "result": "20%"}
{"SMILES": "Cc1cccc(O[C@H]2CCC[C@@H](C(C)CNCc3ccncc3)C2)c1 (relative stereo)", "test": "enzyme activity, inhibitor", "conditions": "1 µM", "quantity": "inhibition", "result": "3%"}
{"SMILES": "NC(=O)C[C@H]1CCc2sc3ncnc(O[C@H]4CC[C@H](N5CCOCC5)CC4)c3c21", "test": "enzyme activity, inhibitor", "conditions": "10 µM", "quantity": "inhibition", "result": "26%"}
{"SMILES": "Nc1ncc(-c2cc(-c3cnn(CC(F)(F)F)c3)ncc2F)nc1C(=O)NC1CNCC(F)C1 (stereo not shown)", "test": "enzyme activity", "conditions": "1 µM", "how to read": "baseline: DMSO control", "quantity": "remaining activity", "result": "99.4%"}
{"SMILES": "C=CC(=O)N1CCCC(n2c(=O)c3ncccc3n(Cc3ccc(Oc4ccccc4)cc3)c2=O)C1 (stereo not shown)", "test": "cell-free assay, competition with immobilised ligand", "conditions": "1 µM", "quantity": "remaining binding", "result": "73%"}
{"SMILES": "N[C@H]1CC[C@H](Nc2nccc(-c3cccnc3Oc3ccc(NC(=O)NC4CC4)c4ccccc34)n2)CC1", "test": "kinobead competition pulldown", "test system": "HEK293/HCT116 lysate mixture", "conditions": "10 µM, 1 h, 4 °C", "how to read": "lower = stronger competition", "quantity": "log2 LFQ intensity", "result": "22.1 and 22 and 21.8"}
{"SMILES": "C[C@H]1CN(C(=O)c2cn(-c3ccnc(N)n3)c3cc(C#CC4(O)CCCCC4)ccc23)CCN1", "test": "enzyme activity, inhibitor, FRET", "conditions": "1 µM", "quantity": "inhibition", "result": "26%"}
{"SMILES": "C=CC(=O)N1CCc2ccc(-n3c(=O)ccc4cnc5ccc(-c6cnn(C)c6)cc5c43)cc21", "test": "KINOMEscan", "conditions": "1 µM", "how to read": "baseline: DMSO control", "quantity": "remaining binding", "result": "100%"}
{"SMILES": "C=CC(=O)N1Cc2nc(-c3cc(-c4cc(Cl)cnc4Cl)c(F)cc3F)n(-c3ccncn3)c2C1", "test": "cell-free assay, inhibitor", "conditions": "1 µM", "quantity": "inhibition", "result": "26.4%"}
{"SMILES": "Cc1ccc(-c2c(/C=C(\\C#N)C(=O)NC(C)C)n(CCCO)c3ncnc(N)c23)cc1", "test": "cell-free assay, competition with immobilised ligand", "conditions": "1 µM", "quantity": "remaining binding", "result": "95%"}
{"SMILES": "COc1cc(Nc2nccc(-c3cnn4nc(OC)ccc34)n2)cc(C(F)(F)F)c1", "test": "binding, competition with immobilised ligand", "conditions": "1 µM", "quantity": "remaining binding", "result": "86%"}
{"note": "For quick reference, copied from above:"}
{"SMILES": "C=CC(=O)N1CCCC(n2c(=O)c3ncccc3n(Cc3ccc(Oc4ccccc4)cc3)c2=O)C1 (stereo not shown)", "test": "cell-free assay, competition with immobilised ligand", "conditions": "1 µM", "quantity": "remaining binding", "result": "73%"}
{"SMILES": "COc1cc(Nc2nccc(-c3cnn4nc(OC)ccc34)n2)cc(C(F)(F)F)c1", "test": "binding, competition with immobilised ligand", "conditions": "1 µM", "quantity": "remaining binding", "result": "86%"}
